Published values of several laboratories.
Protocols differ between the studies behind these lines.
Organism: Enterococcus faecium

CN1C(=O)[C@@H]2NC(=O)[C@@H]3NC(=O)[C@@H](c4ccc(O)cc4)NC(=O)[C@H](NC(=O)C(N)c4ccc(O)cc4)Cc4c[nH]c5cc(ccc45)-c4cc3cc(c4O)Oc3ccc(cc3)C[C@H]1C(=O)N[C@@H](C(=O)O)c1ccc(O)c(c1)Oc1ccc2cc1 (stereo partly shown) gave an MIC of 4 to 8 µg/mL (WCC 0496, VRE-A).
CCc1ccc([C@@H]2C[C@H](C(F)(F)F)n3ncc(C(=O)NCc4ccc(OC)cc4)c3N2)cc1 gave an MIC of 64 µM (microbial growth, broth dilution; X7501).
CC[C@H](C)c1occ2c(=O)c(C(=O)O)c(O)cc-2c1C gave an MIC of 50 µM (microbial growth, broth dilution; ATCC35667).
CN1C(=O)[C@@H]2NC(=O)[C@@H]3NC(=O)[C@@H](c4ccc(O)cc4)NC(=O)[C@H](NC(=O)C(NCc4cccc(F)c4F)c4ccc(O)cc4)Cc4c[nH]c5cc(ccc45)-c4cc3cc(c4O)Oc3ccc(cc3)C[C@H]1C(=O)N[C@@H](C(=O)O)c1ccc(O)c(c1)Oc1ccc2cc1 (stereo partly shown) gave an MIC of 16 µg/mL (brain heart infusion medium).
CCCCCCCCCCCCCC(=O)N[C@H](CCN)C(=O)N[C@@H]1C(=O)N[C@@H](CCN)C(=O)N[C@@H](CC(C)C)C(=O)N[C@@H](CCN)C(=O)N[C@H](Cc2ccccc2)C(=O)N[C@@H](CC(C)C)C(=O)N[C@@H](CCN)C(=O)N[C@H](Cc2ccc(O)cc2)C(=O)N[C@@H](C(C)C)C(=O)N[C@@H](CC(=O)O)C(=O)O[C@@H]1C gave an MIC of 2 µg/mL (broth microdilution; BNCC 186301).
For CNC(CC(C)C)C(=O)NC1C(=O)NC(CC(N)=O)C(=O)NC2C(=O)NC3C(=O)NC(C(=O)NC(C(=O)O)c4cc(O)cc(O)c4-c4cc3ccc4O)C(O)c3ccc(c(Cl)c3)Oc3cc2cc(c3OC2OC(CO)C(O)C(O)C2OC2CC(C)(NCc3ccc(-c4ccc(Cl)cc4)cc3)C(O)C(C)O2)Oc2ccc(cc2Cl)C1O (stereo not shown), the MIC was 2.5 µg/mL (broth microdilution; ATCC BAA-2317 VanA).
CN(C)CCCNC(=O)[C@@H]1NC(=O)[C@@H]2Cc3ccc(cc3)Oc3cc4cc(c3O)-c3ccc5c(c[nH]c5c3)C[C@@H](NC(=O)C(NC(=O)CCCCCN)c3ccc(O)cc3)C(=O)N[C@H](c3ccc(O)cc3)C(=O)N[C@H]4C(=O)N[C@@H](C(=O)N2C)c2ccc(cc2)Oc2cc1ccc2O (stereo partly shown) gave an MIC of 0.5 to 1 µg/mL (WCC 0500, VRE-A).
With CCCCCC/C=C\CCCCCCC[C@@H](O)Cc1cc(O)cc(O)c1 the MIC was 8 µg/mL (microbial growth, broth dilution; drug-resistant strain).
The MIC of Cc1cc(/C=C2\Sc3ccccc3N2CCCN2CCCC2)c2ccccc2[n+]1C is reported as 32 µg/mL (microbial growth, broth dilution; ATCC700221; drug-resistant strain).
For CNc1nc(SC)nc2ccccc12, the MIC was 64 µM (microbial growth, broth dilution; X7501).
